Assay results of several laboratories.
Each numbered part is a random draw from the data of one study; scales do not carry over between parts. Positions count from the first letter of the parent shown.

Set 1
Target: CCNB3, cyclin fold, Cln2 fusion (human)
Method: yeast growth competition, sequencing
Matrix: yeast
Notes: strong parent motif
Reference: not given
Direction: higher = stronger binding
Quantity: normalised enrichment score
Starting sequence: viral docking peptide; KGVKRKLFAEDSS
KGVKRKLFCEDSS [A9C]: 3.27
KGVKNKLFAEDSS [R5N]: -0.0319
KGVKSKLFAEDSS [R5S]: -0.0555
KGVKRKLFAEASS [D11A]: 2.03
KGVKRHLFAEDSS [K6H]: 0.454
KGVKRKLFAEFSS [D11F]: 1.94
KGVKRSLFAEDSS [K6S]: 2.01
KGVKRKLFAEDPS [S12P]: 3.4
KGVKRKLFAKDSS [E10K]: 1.22
AGVKRKLFAEDSS [K1A]: 2.15
KGVKRKLFAENSS [D11N]: 2.11
KGFKRKLFAEDSS [V3F]: 1.01
KGVKRKLFAEDIS [S12I]: 3.12
KGVKRKLFFEDSS [A9F]: 2.91
KGVKRKLFAEDES [S12E]: 3.15
KGVKRKLFSEDSS [A9S]: 2.86
KGVKRKLFAYDSS [E10Y]: 1.13
KGCKRKLFAEDSS [V3C]: 1.64

Set 2
Target: Fragile X messenger ribonucleoprotein 1, C-terminal low-complexity region (Fmr1, Mus musculus, UniProt P35922)
Method: RNA Bind-n-Seq
Form: RNA
Matrix: in vitro
Tested at: 200 nM
Notes: whole 134-nt RNA, ends assumed
Added: 150 mM LiCl
Reference: input library
Direction: higher = stronger binding
Quantity: log2 enrichment
All molecules: 7-deaza-guanosine replaces G
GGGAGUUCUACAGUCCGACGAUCAAGUCCUGUGCUACACAUCGUAUGUACCGAAUCGGGCCCCGGGGCCCCGGCCCCGGAAAGUAUUAUGUUACGCCGUUCGGAUCUGCACUUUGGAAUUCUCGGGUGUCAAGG: -1.85
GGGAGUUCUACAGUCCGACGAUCGUCCUGUGCUACACAUCGUAUGUACCGAAUCGGGGUUUUUUUGGGGUGGGGAAAGGGGAAAGUAUUAUGUUACGCCGUUCGGAUCUGCACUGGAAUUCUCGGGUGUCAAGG: 0.362
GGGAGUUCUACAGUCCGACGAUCGCAGGAAGAAAAAACAAAUGGAAAUGCUUCGGAUAGUGGCAGGGGUGGGGGUUGCUAAGGAAAGGGUGGGAUGGGAGUGGGUAAAGAGUUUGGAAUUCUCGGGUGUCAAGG: 1.54
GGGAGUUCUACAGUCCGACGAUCUCCUGUGCUACACAUCGUAUGUACCGAAUCGGGUUUUUUGGGUUUUUUGGUUUUUUGGGAAAGUAUUAUGUUACGCCGUUCGGAUCUGCAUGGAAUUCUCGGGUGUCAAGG: -0.302
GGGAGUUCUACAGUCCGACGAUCACCAUGCAGGUGGGCAUCUUUGGGAAGUGGGGCAAGGGGGGGAUAGGGAGAGGGGUAACACUUUGGGAACAGGUGGUCCCAGGUCGUUUCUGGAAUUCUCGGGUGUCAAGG: 1.09
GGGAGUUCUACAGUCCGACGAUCGUCCUGUGCUACACAUCGUAUGUACCGAAUCGGGAAAAAGGGGAAAAAGGAAAAAGGGGAAAGUAUUAUGUUACGCCGUUCGGAUCUGCAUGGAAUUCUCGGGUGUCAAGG: 0.707
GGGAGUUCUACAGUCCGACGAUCCACAGACAACACGCACCCACACAGACACAGAGGGAAGGGGUUGGGAUGGGGACAGGGUGCACAGCAGGGCGGGGUAGGACCCCAUCCCCUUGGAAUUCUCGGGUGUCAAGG: -0.569
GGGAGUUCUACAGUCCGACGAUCAAGUCCUGUGCUACACAUCGUAUGUACCGAAUCGGGAAAAGGGAAAAGGAAAAGGGGAAAGUAUUAUGUUACGCCGUUCGGAUCUGCACUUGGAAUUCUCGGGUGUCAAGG: 0.292

Set 3
Target: RING finger protein unkempt homolog, zinc fingers 1-6, GST-SBP tag (UNK, Homo sapiens, UniProt Q9C0B0, residues 30-357)
Sequence of UniProt Q9C0B0 (30-357, looked up): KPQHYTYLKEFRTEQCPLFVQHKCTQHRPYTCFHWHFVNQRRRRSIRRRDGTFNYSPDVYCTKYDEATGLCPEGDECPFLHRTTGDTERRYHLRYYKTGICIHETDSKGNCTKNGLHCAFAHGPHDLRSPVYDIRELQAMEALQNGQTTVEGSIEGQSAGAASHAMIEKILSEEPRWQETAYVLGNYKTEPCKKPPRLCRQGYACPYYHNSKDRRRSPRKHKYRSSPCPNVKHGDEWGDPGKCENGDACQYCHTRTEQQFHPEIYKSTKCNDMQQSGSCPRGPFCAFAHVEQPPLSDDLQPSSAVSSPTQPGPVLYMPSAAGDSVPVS
Method: RNA Bind-n-Seq
Form: RNA
Matrix: in vitro
Tested at: not given
Notes: RNA with constant flanks, human-mouse chimeric sites, ends assumed
Reference: input RNA pool
Direction: higher = stronger binding
Quantity: bound/input enrichment
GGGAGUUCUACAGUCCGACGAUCAUGGAACAUUUCGAUGCGUCACUCAGUACCUAUUUCAAGGCCUUCCUGGGCCCCCGAGAUACAAGAGUCAAAGGAUGGUUUCUUCUGGACAAUUAUAUCCCUACGUUUGUCUGUUCUGUUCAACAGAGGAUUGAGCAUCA: 0.133 ratio
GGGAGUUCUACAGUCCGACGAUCCUAGCAGUCCAGCAGCUAGAAGGAGCCUUGAGACAAACACUCCACACACAGGGAAGGCGAUAACAUUGUAAAUUGGUUUACAUUUUUUCCCCCUGUGGAUUUUUCUAGAGGUCAUAGUGCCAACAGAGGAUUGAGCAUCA: 0.737 ratio
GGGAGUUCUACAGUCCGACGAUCCUGUGACCACAAGAUCCUACCUGAGUGGCAGCUGAAGUUGACUCCCUCUCCUUGCCUGAACCCCCCCCCACUGCCCCCCCAUCCCCCGCAGAAUUCCGAGAUGUUGCCAGCAGACAGUUCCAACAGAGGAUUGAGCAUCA: 0.661 ratio
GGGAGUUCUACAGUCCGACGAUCUUCAAAGAAAAGGGCAGCUGUGUCAUUUCAUAAGUAACUCUGGGGGAGGGAAAUUCUGUUCUUUUGUUUAAUUUUCCCCCAAAUGAAGCCAAAGUGUUUUUUAAGGAAGGAAGAAUGAAUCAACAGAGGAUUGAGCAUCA: 0.15 ratio
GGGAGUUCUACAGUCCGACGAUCCUGUUUUGACAGCCACACAAUCUUGGCAUGUAUUAAGAAAAAAAAAAAUCCCUGUUGAAGUAGUUUUUCCACCUAUCAGCACUGAGUAAAUGCCAUAAAUCCAUUGAAAUGGUCUAAAUACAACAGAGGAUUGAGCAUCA: 0.37 ratio
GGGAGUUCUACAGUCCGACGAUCUCUGGUCACACUCGUGUAUAUGGUGUGUGCUUUGUGGACACUUCACUGGGCAAGUUUUUCAUCGGCCAGUUUUCGGAUGACCGCCACUGUUCCAGAUUUAGGACGCUAGUGGCUCACUAUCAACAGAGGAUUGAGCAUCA: 0.252 ratio
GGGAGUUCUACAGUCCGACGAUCACUCAGAGAUCCACCUCAAUUGAAGUGGGGAGUAAAGGUGUGGCCACCACACCUAACUUGAUGGAUAUAUAUUUUUUUUAAUAUGAAUGAACUCUUGCGUCCAGGGAAGAAAGAUUUGUUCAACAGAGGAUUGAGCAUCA: 0.337 ratio
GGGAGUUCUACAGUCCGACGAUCCAGUCCCCGUGUCCCAGUGCAGGACGAUGUGAACAAAAACUCAAAGCGGCCCUUUCUUUGUAGUUCUUGAUUCUCGAGUGCCAUUAUUAUUGUUUGUCUUUUUUUUUUUUUUUUUAAAGACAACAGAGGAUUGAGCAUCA: 1.05 ratio

Set 4
Target: DBP, bZIP domain (human)
Method: DHFR protein complementation
Matrix: yeast
Notes: single substitutions, most at no-binding floor
Reference: wild-type JUN-FOS pair
Direction: higher = stronger binding
Quantity: binding fitness
Starting sequence: JUN, bZIP domain (human); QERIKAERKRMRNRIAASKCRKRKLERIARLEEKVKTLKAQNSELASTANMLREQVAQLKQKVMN; partner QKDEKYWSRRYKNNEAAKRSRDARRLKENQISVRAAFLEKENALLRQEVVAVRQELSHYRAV
A29D: -1.36 natural log
N42M: -1.39 natural log
Q55E: -1.58 natural log
Q41W: -1.42 natural log
E32A: -1.3 natural log
K34W: -1.48 natural log
I28T: -1.44 natural log
E33S: -1.53 natural log

Mixed results
Starting sequence: PafA, mature enzyme, eGFP fusion (Elizabethkingia meningoseptica, UniProt Q9KJX5); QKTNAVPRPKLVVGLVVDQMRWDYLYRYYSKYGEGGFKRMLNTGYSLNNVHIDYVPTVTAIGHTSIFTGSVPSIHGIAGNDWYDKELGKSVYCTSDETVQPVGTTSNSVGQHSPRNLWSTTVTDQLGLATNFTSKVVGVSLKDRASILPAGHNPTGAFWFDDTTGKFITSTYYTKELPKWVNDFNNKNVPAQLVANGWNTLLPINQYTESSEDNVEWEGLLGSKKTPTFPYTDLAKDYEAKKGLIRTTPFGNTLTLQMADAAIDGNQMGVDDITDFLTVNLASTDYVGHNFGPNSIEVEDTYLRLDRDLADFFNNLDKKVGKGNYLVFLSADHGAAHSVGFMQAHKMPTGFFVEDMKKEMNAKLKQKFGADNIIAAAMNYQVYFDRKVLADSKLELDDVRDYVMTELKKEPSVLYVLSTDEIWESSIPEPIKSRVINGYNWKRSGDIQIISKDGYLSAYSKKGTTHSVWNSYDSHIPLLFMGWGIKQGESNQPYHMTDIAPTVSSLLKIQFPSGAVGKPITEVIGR
W483G  oxyanion analog dissociation constant (vanadate, free oxyanion; microfluidic competitive inhibition; in vitro, cell-free expressed; not given, derived from inhibition constants, unchanged parent 676 nM; lower = stronger binding): 1.02 µM
